Assay results gathered from unrelated publications.
Lines come from different studies, so protocols differ. Values joined by “and” are separate records of one study, mostly repeats; a detail may differ. ± marks the error that the study gave.
CGAS: CGAS 161-522 (Homo sapiens, UniProt Q8N884)
Sequence of UniProt Q8N884 (whole entry, looked up): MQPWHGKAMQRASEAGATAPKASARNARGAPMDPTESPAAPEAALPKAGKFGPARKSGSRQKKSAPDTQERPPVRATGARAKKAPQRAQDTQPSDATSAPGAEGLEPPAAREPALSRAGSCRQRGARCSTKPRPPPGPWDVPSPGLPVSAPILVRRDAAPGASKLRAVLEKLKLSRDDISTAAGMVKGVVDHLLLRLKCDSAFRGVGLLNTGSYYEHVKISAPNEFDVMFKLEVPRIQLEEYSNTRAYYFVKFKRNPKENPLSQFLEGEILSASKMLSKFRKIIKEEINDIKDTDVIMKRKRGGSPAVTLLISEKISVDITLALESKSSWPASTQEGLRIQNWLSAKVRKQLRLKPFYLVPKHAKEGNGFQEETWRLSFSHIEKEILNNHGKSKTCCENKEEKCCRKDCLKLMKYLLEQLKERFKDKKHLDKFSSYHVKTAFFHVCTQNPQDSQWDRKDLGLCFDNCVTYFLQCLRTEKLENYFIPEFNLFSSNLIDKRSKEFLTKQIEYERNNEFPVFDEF
Fibroin-modulator-binding protein-1: Fibroin-modulator-binding protein-1 99-193 (Bombyx mori, UniProt Q5FBS0)
SPT15/TOA1/TOA2/SUA7 1-240; 1-286; 1-122; 1-345: SPT15/TOA1/TOA2/SUA7 1-240; 1-286; 1-122; 1-345 (Saccharomyces cerevisiae)
allR full length assumed: allR full length assumed (Escherichia coli, UniProt P0ACN4)
Sequence of UniProt P0ACN4 (whole entry, looked up): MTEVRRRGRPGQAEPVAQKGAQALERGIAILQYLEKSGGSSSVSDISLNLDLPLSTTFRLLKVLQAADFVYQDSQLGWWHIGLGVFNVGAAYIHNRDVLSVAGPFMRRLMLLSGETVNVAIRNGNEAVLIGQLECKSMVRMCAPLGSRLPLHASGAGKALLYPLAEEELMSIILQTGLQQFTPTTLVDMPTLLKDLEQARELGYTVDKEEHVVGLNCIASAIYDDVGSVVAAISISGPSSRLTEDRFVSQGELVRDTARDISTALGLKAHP
T1: KU70/KU80 KU70 1-592; KU80 1-680 (Arabidopsis thaliana); chain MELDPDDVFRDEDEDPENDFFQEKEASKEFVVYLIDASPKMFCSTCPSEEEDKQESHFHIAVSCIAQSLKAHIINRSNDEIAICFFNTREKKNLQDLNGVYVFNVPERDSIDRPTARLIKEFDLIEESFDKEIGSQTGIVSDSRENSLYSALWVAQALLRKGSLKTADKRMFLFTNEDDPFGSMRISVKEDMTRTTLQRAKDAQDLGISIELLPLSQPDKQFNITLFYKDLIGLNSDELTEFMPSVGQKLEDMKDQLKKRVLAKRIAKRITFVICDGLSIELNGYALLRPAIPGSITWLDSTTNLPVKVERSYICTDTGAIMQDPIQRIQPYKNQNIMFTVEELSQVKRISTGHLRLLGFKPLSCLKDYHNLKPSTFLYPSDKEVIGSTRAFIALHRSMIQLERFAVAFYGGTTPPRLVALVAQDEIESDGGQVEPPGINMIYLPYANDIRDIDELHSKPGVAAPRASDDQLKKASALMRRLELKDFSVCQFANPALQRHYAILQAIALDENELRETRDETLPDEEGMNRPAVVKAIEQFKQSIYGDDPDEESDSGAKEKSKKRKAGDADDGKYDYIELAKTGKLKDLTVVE; chain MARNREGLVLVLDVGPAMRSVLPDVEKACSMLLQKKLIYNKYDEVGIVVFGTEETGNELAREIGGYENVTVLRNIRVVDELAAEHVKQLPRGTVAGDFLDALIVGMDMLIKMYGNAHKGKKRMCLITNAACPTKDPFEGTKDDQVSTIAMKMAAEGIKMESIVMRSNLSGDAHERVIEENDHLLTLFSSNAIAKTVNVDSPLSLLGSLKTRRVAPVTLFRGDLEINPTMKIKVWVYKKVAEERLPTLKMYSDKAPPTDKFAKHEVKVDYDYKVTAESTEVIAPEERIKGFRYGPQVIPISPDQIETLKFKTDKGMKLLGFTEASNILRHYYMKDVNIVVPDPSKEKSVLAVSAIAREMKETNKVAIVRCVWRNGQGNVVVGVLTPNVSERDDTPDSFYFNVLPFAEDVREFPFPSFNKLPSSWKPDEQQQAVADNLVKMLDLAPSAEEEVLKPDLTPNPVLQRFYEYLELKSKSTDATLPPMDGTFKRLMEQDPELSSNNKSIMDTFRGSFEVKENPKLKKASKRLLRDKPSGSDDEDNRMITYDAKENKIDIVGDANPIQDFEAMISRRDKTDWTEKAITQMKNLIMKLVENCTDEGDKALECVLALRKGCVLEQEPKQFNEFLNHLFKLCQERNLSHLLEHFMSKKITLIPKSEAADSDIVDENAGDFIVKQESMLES
Sequence of UniProt P48067 (whole entry, looked up): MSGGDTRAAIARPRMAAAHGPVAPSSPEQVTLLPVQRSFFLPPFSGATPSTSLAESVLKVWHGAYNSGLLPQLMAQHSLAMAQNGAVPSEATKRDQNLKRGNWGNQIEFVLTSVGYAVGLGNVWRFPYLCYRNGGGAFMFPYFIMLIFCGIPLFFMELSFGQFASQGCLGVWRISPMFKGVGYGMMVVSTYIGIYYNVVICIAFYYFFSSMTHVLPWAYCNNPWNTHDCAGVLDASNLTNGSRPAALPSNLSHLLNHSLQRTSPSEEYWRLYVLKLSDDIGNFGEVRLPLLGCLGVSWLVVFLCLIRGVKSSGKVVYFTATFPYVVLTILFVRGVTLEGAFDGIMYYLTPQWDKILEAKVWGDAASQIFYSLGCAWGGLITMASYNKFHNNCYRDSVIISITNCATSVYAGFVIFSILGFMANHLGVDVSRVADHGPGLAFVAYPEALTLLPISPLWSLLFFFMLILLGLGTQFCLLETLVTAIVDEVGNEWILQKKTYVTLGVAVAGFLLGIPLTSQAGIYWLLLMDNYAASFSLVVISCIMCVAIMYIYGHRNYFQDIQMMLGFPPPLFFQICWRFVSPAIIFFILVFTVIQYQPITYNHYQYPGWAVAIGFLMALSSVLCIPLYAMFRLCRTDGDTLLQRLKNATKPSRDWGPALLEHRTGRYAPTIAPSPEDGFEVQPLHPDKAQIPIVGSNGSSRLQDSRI
Sequence of UniProt Q64663 (whole entry, unmodified, looked up): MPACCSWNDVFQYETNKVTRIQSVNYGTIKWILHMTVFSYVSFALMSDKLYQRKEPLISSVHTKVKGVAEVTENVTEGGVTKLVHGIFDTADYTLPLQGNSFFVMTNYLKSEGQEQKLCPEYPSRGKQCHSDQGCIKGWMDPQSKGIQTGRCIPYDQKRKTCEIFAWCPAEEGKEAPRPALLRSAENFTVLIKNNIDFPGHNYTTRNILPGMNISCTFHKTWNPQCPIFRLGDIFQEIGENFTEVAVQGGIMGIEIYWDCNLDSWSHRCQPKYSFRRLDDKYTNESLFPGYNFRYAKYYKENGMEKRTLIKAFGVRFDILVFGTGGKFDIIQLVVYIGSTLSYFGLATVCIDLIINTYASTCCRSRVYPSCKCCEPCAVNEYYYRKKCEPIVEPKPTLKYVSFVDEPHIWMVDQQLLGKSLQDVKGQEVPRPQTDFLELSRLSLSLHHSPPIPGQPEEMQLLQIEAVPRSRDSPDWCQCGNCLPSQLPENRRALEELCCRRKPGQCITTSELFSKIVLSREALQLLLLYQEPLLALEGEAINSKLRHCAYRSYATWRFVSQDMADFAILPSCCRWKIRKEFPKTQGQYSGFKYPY
Sequence of UniProt P19880 (whole entry, looked up): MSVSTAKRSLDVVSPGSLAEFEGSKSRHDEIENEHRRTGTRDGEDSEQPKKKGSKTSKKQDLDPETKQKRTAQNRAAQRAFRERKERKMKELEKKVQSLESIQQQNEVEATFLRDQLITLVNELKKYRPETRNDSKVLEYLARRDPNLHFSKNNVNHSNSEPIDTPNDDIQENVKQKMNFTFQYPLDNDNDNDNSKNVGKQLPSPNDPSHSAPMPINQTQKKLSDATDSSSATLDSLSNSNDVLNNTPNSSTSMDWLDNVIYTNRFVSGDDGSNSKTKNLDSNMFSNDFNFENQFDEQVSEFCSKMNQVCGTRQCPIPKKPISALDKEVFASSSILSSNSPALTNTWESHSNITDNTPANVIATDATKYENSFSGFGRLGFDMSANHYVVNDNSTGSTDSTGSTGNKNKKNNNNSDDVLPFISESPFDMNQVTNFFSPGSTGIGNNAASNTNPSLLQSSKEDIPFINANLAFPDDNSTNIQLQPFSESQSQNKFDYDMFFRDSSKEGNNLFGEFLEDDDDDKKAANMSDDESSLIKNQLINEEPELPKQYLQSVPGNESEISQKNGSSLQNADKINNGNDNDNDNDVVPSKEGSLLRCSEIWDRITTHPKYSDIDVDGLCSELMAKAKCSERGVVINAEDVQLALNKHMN
Sequence of UniProt Q9Y253 (whole entry, looked up): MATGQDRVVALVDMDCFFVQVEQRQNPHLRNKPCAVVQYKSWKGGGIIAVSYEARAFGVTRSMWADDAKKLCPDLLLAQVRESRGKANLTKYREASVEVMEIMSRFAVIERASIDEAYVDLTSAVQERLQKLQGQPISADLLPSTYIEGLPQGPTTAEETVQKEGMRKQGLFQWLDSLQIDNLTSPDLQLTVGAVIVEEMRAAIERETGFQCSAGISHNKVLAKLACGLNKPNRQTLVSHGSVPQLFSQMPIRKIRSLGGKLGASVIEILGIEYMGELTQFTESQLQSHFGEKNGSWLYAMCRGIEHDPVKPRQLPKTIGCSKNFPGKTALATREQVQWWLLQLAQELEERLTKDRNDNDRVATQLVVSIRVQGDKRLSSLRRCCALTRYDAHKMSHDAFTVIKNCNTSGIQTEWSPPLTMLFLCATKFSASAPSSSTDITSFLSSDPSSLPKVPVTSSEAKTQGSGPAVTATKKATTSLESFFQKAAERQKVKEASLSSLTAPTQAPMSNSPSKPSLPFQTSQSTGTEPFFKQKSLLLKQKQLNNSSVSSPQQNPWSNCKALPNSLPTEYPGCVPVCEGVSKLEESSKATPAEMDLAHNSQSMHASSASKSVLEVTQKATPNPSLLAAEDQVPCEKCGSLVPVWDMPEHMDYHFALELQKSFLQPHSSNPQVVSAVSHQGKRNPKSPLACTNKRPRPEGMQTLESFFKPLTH
Sequence of UniProt O67035 (whole entry, looked up): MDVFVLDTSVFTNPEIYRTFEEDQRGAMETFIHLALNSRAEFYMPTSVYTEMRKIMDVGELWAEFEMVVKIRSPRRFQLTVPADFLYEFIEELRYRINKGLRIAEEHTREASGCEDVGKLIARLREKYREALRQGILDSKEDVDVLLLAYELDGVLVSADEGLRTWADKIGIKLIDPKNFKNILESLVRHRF
Sequence of UniProt P43243 (whole entry, looked up): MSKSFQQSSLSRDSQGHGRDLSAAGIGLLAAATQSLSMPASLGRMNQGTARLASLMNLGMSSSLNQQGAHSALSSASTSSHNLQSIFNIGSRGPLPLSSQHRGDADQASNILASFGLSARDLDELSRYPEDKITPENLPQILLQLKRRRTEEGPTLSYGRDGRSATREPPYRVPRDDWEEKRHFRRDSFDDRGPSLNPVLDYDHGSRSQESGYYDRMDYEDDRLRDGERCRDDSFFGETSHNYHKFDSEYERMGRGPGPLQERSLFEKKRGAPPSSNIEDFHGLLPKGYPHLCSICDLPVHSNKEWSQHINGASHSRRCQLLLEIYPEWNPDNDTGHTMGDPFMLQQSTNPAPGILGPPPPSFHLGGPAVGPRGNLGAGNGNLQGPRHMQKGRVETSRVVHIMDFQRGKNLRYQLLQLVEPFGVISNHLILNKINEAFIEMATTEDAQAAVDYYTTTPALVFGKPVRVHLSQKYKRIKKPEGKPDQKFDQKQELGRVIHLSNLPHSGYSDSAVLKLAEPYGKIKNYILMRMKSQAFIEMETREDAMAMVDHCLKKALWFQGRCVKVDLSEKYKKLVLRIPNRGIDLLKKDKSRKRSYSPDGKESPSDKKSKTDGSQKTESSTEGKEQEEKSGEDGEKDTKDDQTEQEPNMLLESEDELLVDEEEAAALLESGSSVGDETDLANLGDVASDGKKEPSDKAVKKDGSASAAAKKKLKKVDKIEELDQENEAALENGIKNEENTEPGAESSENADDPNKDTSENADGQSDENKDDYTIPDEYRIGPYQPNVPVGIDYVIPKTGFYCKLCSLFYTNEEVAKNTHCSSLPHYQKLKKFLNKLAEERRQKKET
Sequence of UniProt Q00059 (whole entry, looked up): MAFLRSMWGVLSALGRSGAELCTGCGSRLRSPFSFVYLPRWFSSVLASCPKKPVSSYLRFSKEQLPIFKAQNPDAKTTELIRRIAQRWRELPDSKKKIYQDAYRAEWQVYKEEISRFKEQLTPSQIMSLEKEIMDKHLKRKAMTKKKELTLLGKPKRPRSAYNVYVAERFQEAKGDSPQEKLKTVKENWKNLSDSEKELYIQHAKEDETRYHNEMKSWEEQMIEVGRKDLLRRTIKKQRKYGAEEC
Sequence of UniProt P01185 (whole entry, looked up): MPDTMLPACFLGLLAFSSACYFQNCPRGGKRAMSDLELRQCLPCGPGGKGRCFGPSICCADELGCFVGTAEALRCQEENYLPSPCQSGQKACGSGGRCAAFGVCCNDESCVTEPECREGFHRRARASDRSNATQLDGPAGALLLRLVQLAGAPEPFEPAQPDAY

Molecule	tested on	test	system	setting	scale	endpoint	value
CTCTCGGGACGACGTCCAAGTAGTACGTTTAATTAGGATTTCCGAATTATTGGCATGCGTCGTCCC (DNA; stem-loop; 5' amino group)	arginine vasopressin 20-28 (Homo sapiens, UniProt P01185)	FET	folded DNA	apparent		Kd	1.3 nM
DNA 1 GGATCTCGACGCTCTCCCTT / DNA 2 GAGAGCGTCGAGATCC (dsDNA; 3' 4-nt overhang, blunt end)	RECQL 49-616 (Homo sapiens, UniProt P46063)	fluorescence anisotropy	double-stranded DNA	Mg2+ 5 mM, with: ADPNP 2 mM		Kd	331 ± 40 nM
TAAGACACGATGCGATAAAATCTGTTTGTAAAATTTATTAAGGGTACAAATTGCCCTAGC (dsDNA)	CGAS	fluorescence anisotropy	double-stranded DNA, one strand shown			Kd	51.4 ± 1.1 nM
UUGGUAGUCACCCCAAAUUGUUAUU (ssRNA)	DDX50 full length assumed (Homo sapiens, UniProt Q9BQ39)	MST	RNA	with: glucose 350 µM		Kd	5390 ± 2640 nM
CACACACACACA (dsDNA)	Fibroin-modulator-binding protein-1	ITC	double-stranded DNA, one strand shown			Kd	3990 ± 560 nM
ACAACAGACACACGAAGGTATAAAAATAAAATACATCAAGTCAATCGGTCC (dsDNA; 5'-amino-C6 primer)	SPT15/TOA1/TOA2/SUA7 1-240; 1-286; 1-122; 1-345	array	double-stranded DNA, one strand shown	TBP:TFIIA:TFIIB ternary complex		Kd	17.4 ± 15.5 nM
methyl-β-cyclodextrin	SLC6A9 (Homo sapiens, UniProt P48067)	transport activity, [3H]glycine uptake		3.5 mg/mL, 1 min, with: glycine 900 µM	higher = more transport	glycine uptake rate	69.4 a.u. and 53.4 a.u. and 52.4 a.u.
GTGGACTAAATCTAGTTTTGGAAAAATATTCCAACTTTTGTATTGATGTTGTTCTCTTAAG (dsDNA)	allR full length assumed	BLI	double-stranded DNA, one strand shown			Kd	8.69 nM
GGACGGACGGAC (dsDNA)	Fibroin-modulator-binding protein-1	ITC	double-stranded DNA, one strand shown			Kd	11500 nM
CTCAGGAATTCCTATAGAGTAATGTGGAGCTCAGTTCAAGTCAATCGGTCC (dsDNA; 5'-amino-C6 primer)	SPT15/TOA1/TOA2/SUA7 1-240; 1-286; 1-122; 1-345	array	double-stranded DNA, one strand shown	TBP:TFIIA:TFIIB ternary complex		Kd	8.5 ± 4.9 nM
DNA 1 TAACAAAAAATTTCCACCAAAC / DNA 2 TTTGGTGGAAATTTTTTGTTAG (dsDNA (Homo sapiens); 3' overhang)	TFAM 43-246 (Homo sapiens, UniProt Q00059)	fluorescence polarization	double-stranded DNA			Kd	2.5 ± 0.9 nM
UUCCUAUAUCUUCU (XNA; single strand, 2'-OMe, phosphorothioate backbone)	MATR3 1-847 (Homo sapiens, UniProt P43243)	fluorescence polarization	modified nucleic acid	apparent		Kd	243 ± 119 nM
CGGUGUUGCU (ssRNA)	TARDBP 102-269 (Homo sapiens, UniProt Q13148)	BLI	RNA			Kd	70 ± 10 nM
CTGCTGGAAACGCCGCGGTCAGCTCGGCTGCTGC (dsDNA)	EWSR1 1-656 (Homo sapiens, UniProt Q01844)	EMSA	double-stranded DNA, one strand shown			Kd	126 ± 15 nM
AGTTGGCAAGATGCCAATC (dsDNA)	NFIB 14-176 (Homo sapiens, UniProt O00712)	BLI	double-stranded DNA, one strand shown	with: Zn2+ 1 mM		Kd	1.61 ± 0.04 nM
DNA 1 TGGGTGGGTAGGGTGGGTAGGGGAGGAT / DNA 2 ATCCTCCCCTA (DNA; intramolecular parallel G4, 5' overhang, 11-bp duplex)	REV1 330-833 (Homo sapiens, UniProt Q9UBZ9)	FP	folded DNA	KCl 100 mM		Kd	4.7 ± 0.6 nM
TCCTGAAGAGGCGCCTATAAAAGGTCCTATCGTCGTCAAGTCAATCGGTCC (dsDNA; 5'-amino-C6 primer)	SPT15/TOA1/TOA2/SUA7 1-240; 1-286; 1-122; 1-345	array	double-stranded DNA, one strand shown	TBP:TFIIA:TFIIB ternary complex		Kd	3.69 ± 0.83 nM
ATTGATTGATTG (dsDNA)	Fibroin-modulator-binding protein-1	ITC	double-stranded DNA, one strand shown			Kd	1810 ± 282 nM
TTGACAAAATTTGAAAGTTGGAAGATATGCCCAATAAATAGAGGTAGGAATAAAATGGCAA (dsDNA)	allR full length assumed	BLI	double-stranded DNA, one strand shown			Kd	423 nM
TCCTGAAGGGACGCCCTAGCTTGGTCCTATCGTCGTCAAGTCAATCGGTCC (dsDNA; 5'-amino-C6 primer)	SPT15/TOA1/TOA2/SUA7 1-240; 1-286; 1-122; 1-345	array	double-stranded DNA, one strand shown	TBP:TFIIA:TFIIB ternary complex		Kd	5.83 ± 2.46 nM
Peginesatide	UT7/EPO	tyrosine phosphorylation, LC-MS/MS phosphoproteomics, trypsin, item: RICS tyrosine 752		10 nM, 15 min, with: 10 U/mL EPO	baseline: vehicle	phosphorylation level	4.2 fold

Molecule	tested on	test	system	setting	scale	endpoint	value
TTAACGTCACTTGTGGGAACAGAATGTATTATTCCGTGAAGAAGG (dsDNA (Homo sapiens); blunt duplex)	NR3C1 418-506 (Homo sapiens, UniProt P04150)	EMSA	double-stranded DNA, one strand shown			Kd	357 ± 55 nM
colistin	Salmonella enterica Derby	broth microdilution	clinical isolate RKI 270/14			MIC	≤ 0.5 µg/mL
AAGGAAGGAAGG (dsDNA)	Fibroin-modulator-binding protein-1	ITC	double-stranded DNA, one strand shown			Kd	4390 ± 660 nM
TTGATAAGAGGTCATTTTTGCGGATGGCTTAGAGCTTAATTGCTGAATCTGGTGCTGTAGCTCAACATGTTTTAAATATGCAA (ssDNA)	MGM101 23-269 K133A (Saccharomyces cerevisiae, UniProt P32787)	fluorescence polarization	single-stranded DNA			Kd	760 ± 160 nM
TTCTACGAGATCGTCATGAC (ssDNA)	recA full length assumed (Escherichia coli, UniProt P0A7G6)	BLI	single-stranded DNA	with: ATPgS		Kd	1930 ± 40 nM
AAAGAAAGAAAGAAAGAAAGAAAGAAAGAAAGAAAGAAAGAAAGAAAGAAAGAAAGAAAG (ssRNA)	CGAS	fluorescence anisotropy	RNA			Kd	597 ± 377 nM
CTCGCTCCATCTCCAGAACTACAAGTCCCAGAGTGTCAAGTCAATCGGTCC (dsDNA; 5'-amino-C6 primer)	SPT15/TOA1/TOA2/SUA7 1-240; 1-286; 1-122; 1-345	array	double-stranded DNA, one strand shown	TBP:TFIIA:TFIIB ternary complex		Kd	1.59 ± 0.24 nM
11-deoxycorticosterone	CYP11B2 (human)	substrate binding, stopped-flow global kinetic fitting	purified enzyme	3-state induced fit model, with: no adrenodoxin		rate constant k2	1.03 ± 0.166 s⁻¹
ATTTATATTATTTATTCATATTTATATTTA (ssDNA)	APOBEC3F full length assumed W126A (Homo sapiens, UniProt Q8IUX4)	EMSA	single-stranded DNA			Kd	3930 ± 417 nM
UAGAAGCGGAUUUAGCUCAGUUGGGAGAGCGCCAGACUGAAGAUCUGGAGGUCCUGUGUUCGAUCCACAGAAUUCGCA (tRNA (Saccharomyces cerevisiae))	RNA-free ribonuclease P 1-192 (Aquifex aeolicus, UniProt O67035)	fluorescence polarization	folded RNA	with: CaCl2 20 mM		Kd	150 ± 20 nM
GAGGGAGGGAGG (dsDNA)	Fibroin-modulator-binding protein-1	ITC	double-stranded DNA, one strand shown			Kd	10100 nM
GACCGGAAGTGG (dsDNA)	ERF 22-140 (Homo sapiens, UniProt P50548)	fluorescence anisotropy	double-stranded DNA, one strand shown	50 nM DNA		Kd	136 ± 18 nM
CTCAGGAATTCCCATAAAGTAATGTGGAGCTCAGTTCAAGTCAATCGGTCC (dsDNA; 5'-amino-C6 primer)	SPT15/TOA1/TOA2/SUA7 1-240; 1-286; 1-122; 1-345	array	double-stranded DNA, one strand shown	TBP:TFIIA:TFIIB ternary complex		Kd	3.34 ± 0.62 nM
BzATP	P2X purinoceptor 7 (P2rx7, Rattus norvegicus, UniProt Q64663)	ion current, agonist, two-electrode voltage clamp	Xenopus laevis oocytes	100 µM	baseline: 100 µM ATP current	normalized current	1.94 and 1.48 and 1.44
CACCATCCACTAC / ATGTAGTTGTAGTGGATGGTGGTAC (dsDNA; primer-template)	POLH 1-432 (Homo sapiens, UniProt Q9Y253)	fluorescence polarization		with: MgCl2 5 mM		Kd	12 ± 1 nM
ACCTAGATAGAGCCA (dsDNA; blunt)	T1, KU70/KU80 KU70 1-592; KU80 1-680 (Arabidopsis thaliana)	PIFE stopped-flow	double-stranded DNA, one strand shown			Kd	180 nM
TAGATAGATAGA (dsDNA)	Fibroin-modulator-binding protein-1	ITC	double-stranded DNA, one strand shown			Kd	1180 ± 66.5 nM
DNA 1 CACTGGCCGTCTTACGGTCGCTCTGCTCGACG / DNA 2 CGACCGTAAGACGGCCAGTG (dsDNA; 20 bp, 3' 12 nt overhang)	RECQL 63-592 T371A (Homo sapiens, UniProt P46063)	fluorescence anisotropy	double-stranded DNA	with: Mg2+ 3 mM		Kd	108 ± 35.4 nM
CTGAAGGGGGGGCTATAAAAGTTAGTGGGGGCTCCTCAAGTCAATCGGTCC (dsDNA; 5'-amino-C6 primer)	SPT15/TOA1/TOA2/SUA7 1-240; 1-286; 1-122; 1-345	array	double-stranded DNA, one strand shown	TBP:TFIIA:TFIIB ternary complex		Kd	1.12 ± 0.36 nM
CGCTTATAGAATTATATAATTATCCAATTATCGAATTATCTAATTATGCAATTATCTCCGGCGGTATGAC (dsDNA)	YAP1 full length assumed (Saccharomyces cerevisiae, UniProt P19880)	MITOMI	double-stranded DNA, one strand shown	not purified		Kd	1400 ± 100 nM
